Published values pooled from the literature.
Protocols differ between the studies behind these lines.

CO[C@H]1C[C@@H]2CC[C@@H](C)[C@@](O)(O2)C(=O)C(=O)N2CCCC[C@H]2C(=O)O[C@H]([C@H](C)C[C@@H]2CC[C@@H](OC(=O)NCCOCCOCCOCCOCCOCCOCCOCCOCCC(=O)N3CCc4cc(Cn5nc(-c6ccc7oc(N)nc7c6)c6c(N)ncnc65)ccc4C3)[C@H](OC)C2)C[C@@H](O)[C@H](C)/C=C(\C)[C@@H](O)[C@@H](OC)C(=O)[C@H](C)C[C@H](C)/C=C/C=C/C=C/1C
patients with AE (item: gastric haemorrhage leading to dose reduction; patients with advanced solid tumours; intravenous, dose not given, grade ≥3, all doses): 1.8%

C=CCNc1c(O)cc2c(O)c1C[C@@H](C)C[C@H](OC)[C@H](O)[C@@H](C)/C=C(\C)[C@H](OC(N)=O)[C@@H](OC)/C=C\C=C(/C)C(=O)N2
patients with arthralgia TEAE (unresectable or metastatic STS, GIST, other; intravenous, 90 mg/m^2): 17%

O=C1Nc2cc3[nH]nc(-c4ccncc4)c3cc2CN1Cc1ccccc1
patients with grade ≥3 TEAE (item: increased ALT; patients with advanced solid tumours; intravenous, dose not given, schedules 1 and 2): 9%

C[C@@H]1OC(=O)NN=C1c1ccc(-c2ccc(F)cc2)c(C(F)(F)F)c1
patients with non-cardiac chest pain (patients, phase I trial; oral, dose not given, all arms, any grade TEAE): 20%

Nc1nc2cc(-c3ccc4ncc(C(=O)N5CCOCC5)n4c3)ccc2o1
patients with adverse events (all-cause adverse events, all grades; patients with advanced solid tumours; dose not given): 100%

N[C@@H]1c2ccccc2OC12CCN(c1cnc3c(N4CCCc5ncccc54)n[nH]c3n1)CC2
patients with dose reductions (phase Ia; patients advanced metastatic solid tumours; oral, dose not given): 20%

CN1CC[C@@H](c2c(O)cc(O)c3c(=O)cc(-c4ccc(C(F)(F)F)cc4Cl)oc23)[C@@H]1CO
patients with adverse event (item: Syncope; relapsed B-cell malignancies or AML; oral, 100 mg, grade 3-4, continuous dosing): 0%

CC(=O)c1c(C)c2cnc(Nc3ccc(C4CCN(CCS(C)(=O)=O)CC4)cn3)nc2n(C2CCCC2)c1=O
patients with serious AE (HR+/HER2- advanced breast cancer patients; oral, 50 mg): 0%

CCN(CCO)CCCC(C)Nc1ccnc2cc(Cl)ccc12 (stereo not shown)
patients with adverse event (item: Hypocalcemia grade 2; newly diagnosed glioblastoma patients; oral, 800 mg/dose, with radiotherapy and temozolomide): 33%

COc1c(OCCCN2CCOCC2)ccc2c1N=C(NC(=O)c1cnc(N)nc1)N1CCN=C21
patients with adverse event (item: Hyperglycaemia; patients with advanced malignancies; intravenous, dose not given, any grade, all cohorts, with: gemcitabine): 80%

A few entries again:
O=C1Nc2cc3[nH]nc(-c4ccncc4)c3cc2CN1Cc1ccccc1
patients with grade ≥3 TEAE (item: increased ALT; patients with advanced solid tumours; intravenous, dose not given, schedules 1 and 2): 9%
